Published values collected from several papers.
Numbered parts are unrelated; each lists some results of a single study. Substitutions count along the parent as printed.

Sample 1 — target: CCNA1, cyclin fold, Cln2 fusion (human); technique: yeast growth competition, sequencing; matrix: yeast; notes: weak parent motif; baseline: not given; direction: higher = stronger binding
Starting sequence: INSM1 docking peptide (human); PKAIRKLHFEDEV; partner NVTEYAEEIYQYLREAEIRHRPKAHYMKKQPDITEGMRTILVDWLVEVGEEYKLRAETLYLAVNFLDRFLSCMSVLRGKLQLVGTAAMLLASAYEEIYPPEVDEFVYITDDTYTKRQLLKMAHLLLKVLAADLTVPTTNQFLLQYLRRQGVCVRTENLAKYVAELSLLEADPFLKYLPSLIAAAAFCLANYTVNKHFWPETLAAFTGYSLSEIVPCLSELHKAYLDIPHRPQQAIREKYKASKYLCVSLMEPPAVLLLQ
| Variant | normalised enrichment score |
| --- | --- |
| R5A | -0.233 |
| K6N | 0.606 |
| L7K | 0.369 |
| K6E | 0.487 |
| H8M | 0.261 |
| I4A | 1.19 |
| I4R | 1.58 |
| E12F | 0.87 |
| F9H | 0.313 |
| E12M | 0.806 |
| D11S | 0.614 |
| H8P | 0.2 |
| L7Q | -0.282 |
| F9L | 0.047 |
| L7N | 0.172 |
| I4V | 0.42 |

Sample 2 — technique: RNA Bind-n-Seq; form: RNA; matrix: in vitro; tested at: 365 nM; baseline: no-protein control; direction: higher = stronger binding
Target: RNA binding protein fox-1 homolog 2, RRM domain, GST-SBP tag (RBFOX2, Homo sapiens, UniProt O43251-10, residues 100-194)
Notes: natural RNA segment, single round, ends assumed
All sequences stand within: GGGAGUUCUACAGUCCGACGAUC … UGGAAUUCUCGGGUGCCAA
Construct (chain): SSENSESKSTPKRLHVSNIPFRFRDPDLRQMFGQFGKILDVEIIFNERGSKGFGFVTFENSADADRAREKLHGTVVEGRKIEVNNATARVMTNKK
| Oligonucleotide | RBNS enrichment (R) |
| --- | --- |
| ACGUACAAAACUCUGUAUAAGUUGAAGGAAAAUGUUCAUGUUCAUAUGUACUUGUUUGCUAUGACUACAUUUUGAGGUUUUGUAAAACUGUUAUUUUUUUUUUUUUCACA | 1.02 |
| GCAACCUCCAGGAAGAGAUACUCGUUACCCUUCAUUAUUUUCUAGCACUUUUGAACAGUCCCACAGUGCACAGGCCAUUUGAAGGAUGUAGAUGGCAGCCCUGGGCUGUC | 0.957 |
| ACAGUCUGCUUGUGGGCUCUGAAAGCUGGGGUGGGGCCAGAGCCUGAGCGUUUAAUUUAUUCAGUACCUGUGUUUGUGUGAAUGCGGUGUGUGCAGGCAUCGCAGAUGGG | 2.37 |
| CAUCCAGAGCUCCUCUGAAGCCAGGGGGCUAACGGAUGUUGUGUGGAGUCCUGGCUGGAGGUCCUCCCCCAGUGGCCUUCCUCCCUUCCUUUCACAGCCGGUCUCUCUGC | 0.261 |
| AAGUAACUAAAUAGACUGCGGCACUUUUUUGCUUUAAACUAGAUCAUCUUAGAUUUGUCGAUACCUUCGAAAUUUGAUGGUUUCAUCCCAAAUGACUGCACUAUAUGUAU | 1.72 |
| GGCCACUUCUCUGAAGGAGGGCUGGGUUCUGGGCCUGUAUCGAAUAAACACAAACCUGGAUGGCGCAGUGGUCGCAGUGGCUUCAGACCCUCCUUGUCUGCCCCUCCCCU | 0.195 |
| ACCGCUUUCAAUACACAAUUAGUAAUCAACUGUUUUGUAUACUUGUUUUCAGUUUUCAUUUCGACAAGCACUGUAAUUAUAGCUGUUAGAAUAAAGUCUCUUAACUAUUU | 0.274 |
| AGUCUUGUGCUGUUCCCAGAACAGGACGACAGUGAAAAGAACACUCUUGACCCUACACUGAAGGCUGAAGGCAGAAGCCACAAGAGGCCUUGAGUGCCACCCCCAGGGAA | 0.133 |
| CUUUACCCAGUGUGUUCCUGCAUUGUUUAGUGUGGAACUGUGGGCAGGUGCCGAGUGUCAGAUAGCAUCGGUCCAGAGCUCGUCAGAGGCCCCUGACAGUGGAAACAGAA | 1.97 |
| GAUGUAUUCGGUGUAGCUGAGGUCACUUUGGAAGUCUGUGGCUGUUCCAUGUCCUAGGCAAGCCACUUGUUAACCCUGAGUGACAAUCUUUAUAAAUCAUUGUUAAUUCA | 0.381 |
| CAAAGUGGCCAAACUUUUCAACUGUAAUUUUAUAAAUGAUACUACACUGAUAUAGCCAAUUAGAUUUAAAAUGUCUUCAAAAAUUACUUUAUUUUAUUUAAAGCAUCUGU | 0.438 |
| GGGCCCCAGCUCGCGGGACCCGACCCCCCGUGGGCUCCCGUGUUUUGUAGGAGACUUGCCAGAGCCGGGCACAUUGAGCUGUGCAACGCCGUGGGCUGCGUCCUUUGGUC | 0.859 |

Sample 3 — technique: universal PBM; form: double-stranded DNA, one strand shown; matrix: in vitro; tested at: 600 nM; direction: higher = stronger binding
Target: Sal-like protein 4, full length isoform A (SALL4, Homo sapiens, UniProt Q9UJQ4, residues 1-1053)
Sequence of UniProt Q9UJQ4 (whole entry, looked up): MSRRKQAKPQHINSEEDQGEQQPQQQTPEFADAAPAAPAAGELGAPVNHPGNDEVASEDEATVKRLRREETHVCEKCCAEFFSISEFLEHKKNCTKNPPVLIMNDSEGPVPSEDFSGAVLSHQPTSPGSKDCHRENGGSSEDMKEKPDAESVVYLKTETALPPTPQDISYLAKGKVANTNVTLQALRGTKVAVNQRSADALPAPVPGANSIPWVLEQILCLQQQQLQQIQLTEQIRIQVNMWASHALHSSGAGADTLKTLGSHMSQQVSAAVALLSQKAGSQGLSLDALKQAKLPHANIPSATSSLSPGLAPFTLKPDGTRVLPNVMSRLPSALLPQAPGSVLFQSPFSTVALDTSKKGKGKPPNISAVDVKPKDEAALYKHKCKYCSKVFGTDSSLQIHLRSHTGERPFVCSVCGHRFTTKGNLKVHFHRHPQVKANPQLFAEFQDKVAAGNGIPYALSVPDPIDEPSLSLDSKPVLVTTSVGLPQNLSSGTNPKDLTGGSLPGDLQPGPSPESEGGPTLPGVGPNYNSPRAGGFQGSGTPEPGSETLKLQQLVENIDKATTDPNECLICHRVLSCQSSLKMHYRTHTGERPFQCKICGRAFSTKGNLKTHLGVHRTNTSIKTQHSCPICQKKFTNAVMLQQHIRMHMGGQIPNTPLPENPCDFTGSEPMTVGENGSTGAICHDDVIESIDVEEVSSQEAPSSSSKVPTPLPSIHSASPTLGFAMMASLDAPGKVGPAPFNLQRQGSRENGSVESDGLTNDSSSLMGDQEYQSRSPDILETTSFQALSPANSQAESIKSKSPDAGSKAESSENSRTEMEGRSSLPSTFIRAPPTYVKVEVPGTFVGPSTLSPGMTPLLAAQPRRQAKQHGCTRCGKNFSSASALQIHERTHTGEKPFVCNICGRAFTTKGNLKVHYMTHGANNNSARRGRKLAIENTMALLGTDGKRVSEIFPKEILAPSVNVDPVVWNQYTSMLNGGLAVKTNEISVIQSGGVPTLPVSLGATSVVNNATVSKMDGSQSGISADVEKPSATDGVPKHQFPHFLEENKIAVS
Notes: 8-mer, flanks averaged, mean of replicates
| Oligonucleotide | E-score |
| --- | --- |
| CAACCGCC | -0.288 |
| GCCCTAAA | -0.193 |
| GATCGATA | 0.247 |
| ACATTGCT | 0.222 |
| CAATTGAA | 0.137 |
| CACCGGGA | -0.292 |
| ATAATCAG | 0.284 |
| ATCATTCA | 0.267 |
| ATCGTTGG | 0.133 |
| ATCTGTGG | -0.158 |
| AGCCCTAA | -0.0145 |
| AGTGAGCC | -0.18 |
| CACCGGAA | 0.0573 |
| GCCCCCCC | -0.397 |
| GTATCTGA | 0.0462 |
| GGCGCAGA | -0.227 |
| ACATTAGA | 0.185 |

Sample 4 — technique: RNA Bind-n-Seq; form: RNA; matrix: in vitro; tested at: 100 nM; baseline: input RNA pool; direction: higher = stronger binding
Target: RING finger protein unkempt homolog, zinc fingers 1-6, SBP tag (UNK, Homo sapiens, UniProt Q9C0B0, residues 30-357)
Sequence of UniProt Q9C0B0 (30-357, looked up): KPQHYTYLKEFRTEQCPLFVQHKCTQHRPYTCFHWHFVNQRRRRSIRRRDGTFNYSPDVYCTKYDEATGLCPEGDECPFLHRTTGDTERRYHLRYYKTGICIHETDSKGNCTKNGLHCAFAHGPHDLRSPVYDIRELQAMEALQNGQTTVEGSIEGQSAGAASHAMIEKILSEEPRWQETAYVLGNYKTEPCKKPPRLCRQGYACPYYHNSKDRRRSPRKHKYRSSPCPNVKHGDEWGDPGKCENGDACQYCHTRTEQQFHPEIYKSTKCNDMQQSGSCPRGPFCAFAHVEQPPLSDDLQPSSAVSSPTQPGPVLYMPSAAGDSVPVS
Notes: RNA with constant flanks, vertebrate orthologous sites, ends assumed
All sequences stand within: GGGAGUUCUACAGUCCGACGAUC … CAACAGAGGAUUGAGCAUCA
| Oligonucleotide | bound/input enrichment |
| --- | --- |
| CCUCUUAAUCCCAUCUCUUCAGUUUCAUAGUGCUGCAGUAUUACCUUCAAUUGUAUCUUUGGUGGACUUAUUUUUAAUUCUAGGGAAACUUCCAGUGUGGAUACUGUGAGCUAGAUGGAG | 0.927 ratio |
| ACUGUUGUUAAGCACUGUGUUCCAGACUGUGUCUGACUUAGUGUAACCUAGGAGAUUUUAUAGUUUUAUUUUAAUGAAAUCCUGAUUGACGCAGAGCUGUGGGGAAAAUGGUCCCUUUUA | 2.31 ratio |
| AAGAAAAGGAGUAGUCUAGGCAGGGGUAACCAUUAAUUUAUUUUAAAGAAAUCCUGAAAAUCCUAUUCAUAUUAGUUGGAGAAUUUAAAUAAGCAUCUUUGAGGUGAUUCUAAUAGUCUG | 0.798 ratio |
| GUUGUGACCCAUUUAACAUACACAAAAAAUUAGCGAAAAAAAAUUUGCAUGUAAUUGACUUAGAUGAUGCCACUUUUCUGAGUGCUAAAUUUGGAAGACAGCUUGUACCUGGUUGGAAGC | 1.6 ratio |
| GAUUUGGACCCUGGAGCCGAACCAGGGAGCUAGCAAAAGUAAAGCAUACUUGUAAAAUUAUAGCCAUGUGCAGCUGUACAGCAACAGUAUUACCACUAGCAGCUGUGUUAAAGUAUUUAU | 0.688 ratio |
| AUUCAAACCUGUGGUACCAUGGCCUCAUGUUGAAGGAGUAGAAGUGGACUUAGAGUCUAUUAGAAGAAAAAACAAAGCCAAAAAUGAACAGGAGCGCCAUGCUGGAGGAGAUUCCCAGAG | 0.418 ratio |
| CAUGAUCUUGUUACUGUGAUAUUUUAAAUAUCCACAGUACUCACUUUUUCCAAAUGAUCCUAGUAAUUGCCUAGAAAUAUCUUUCUCUUACCUGUUAUUUAUCAAUUUUUCCCAGUAUUU | 1.23 ratio |
| UUUUAUUGUACUUGGAAAAAUCUUAGUUUUAAACUAGUCACGGUGAUAACUGGUCUGUGCUAGUGGAAUCAUUUACUCUUACCUUUUAAAUUAUCUUCUCUGUCUGAUACCUGAAACCGU | 1.01 ratio |
| CAUUAUACCCUGCUGUAUAAUAAACAAUCUUAGACAUUUAUCAACUGUUGAUACAAAUGUUAGUCCCUAACCACUUUUUAUAUAUGUUUUAAAUUUUUGAAAUUCAAGUGUACCUGCCAU | 0.988 ratio |
| CUGUUGUGUGAAACAUGUCUACCCAGAAAAGUAAUAUUCUAUAAAUACUAUUAAAAAACUUAGCUAUAUUAUUUUUAAGCAUUAAAUUAUAUGUCAAGGAGUUAAAGUGAAUUUCAGAGU | 0.494 ratio |
| AAACCCCGAUUUUAGACGUGCUAUCAAGGCUUUCAUUCCAGUUUGUUUUGUCUUCUUGUUUAGAUACCAAUCUUUUAAAUUCUUGCAUUUUAGUAAGAAAGCUACGUUUUUAUGGAUGUU | 0.832 ratio |

Sample 5 — technique: protein binding microarray; form: double-stranded DNA, one strand shown; matrix: in vitro; tested at: not given; baseline: not given; direction: higher = stronger binding
Target: Histone acetyltransferase KAT6A, winged helix 2, GST fusion (KAT6A, Homo sapiens, UniProt Q92794, residues 85-181)
Notes: 8-mer, flanks averaged, mean of 2 arrays, mostly near background
Residues (chain): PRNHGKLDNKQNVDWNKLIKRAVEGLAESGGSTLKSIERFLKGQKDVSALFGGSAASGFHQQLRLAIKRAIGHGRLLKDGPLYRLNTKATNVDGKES
| Oligonucleotide | E-score |
| --- | --- |
| CACACAAC | -0.0467 |
| ACGTAGTG | -0.0487 |
| ATCGTGCC | 0.108 |
| AAGCGGAA | 0.08 |
| TACCGAGA | -0.106 |
| GGCGCGGA | 0.0881 |
| AAGGTTGG | -0.0972 |
| AAGATTTG | -0.0617 |
| AGCTAAAC | 0.132 |
| AGCCAAGA | -0.176 |
| CGAGTGCG | 0.12 |
| GGGAAACC | 0.18 |
| GCAATCCA | 0.0399 |
| CATACTAG | -0.1 |
| CCTGCCTC | 0.148 |
| AAGTCACT | -0.197 |
| CGTCGTGA | -0.075 |
| TGTAACAA | -0.0899 |
| CTCGCAAG | 0.0977 |
| GTCTAATA | -0.187 |

Some of these lines once more (sample 3):
| Oligonucleotide | E-score |
| --- | --- |
| GATCGATA | 0.247 |
| ACATTGCT | 0.222 |
| CAATTGAA | 0.137 |
| CACCGGGA | -0.292 |
| ATAATCAG | 0.284 |
| ATCATTCA | 0.267 |
| ATCGTTGG | 0.133 |
| ATCTGTGG | -0.158 |
| AGCCCTAA | -0.0145 |
